{"data": "Values quoted from earlier work as cited in several papers", "note": "Lines come from different studies, so protocols differ. ± marks the error that the study gave.", "sequence of UniProt P30542 (whole entry, looked up)": "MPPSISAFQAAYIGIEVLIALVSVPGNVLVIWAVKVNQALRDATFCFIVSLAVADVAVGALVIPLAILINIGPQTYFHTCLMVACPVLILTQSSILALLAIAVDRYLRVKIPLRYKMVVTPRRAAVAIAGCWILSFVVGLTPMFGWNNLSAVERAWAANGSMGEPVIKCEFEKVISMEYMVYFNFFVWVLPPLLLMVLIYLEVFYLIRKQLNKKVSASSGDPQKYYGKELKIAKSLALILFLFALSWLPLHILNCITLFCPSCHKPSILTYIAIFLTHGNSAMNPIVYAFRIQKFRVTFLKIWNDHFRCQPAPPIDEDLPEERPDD"}
{"Substance": "FGF-1", "tested on": "Schwann cells", "conditions": "with: 5 to 10 µM forskolin", "endpoint": "doubling time", "value": "1 to 2 days"}
{"Substance": "Nc1nc2[nH]c(CCCCCCc3ccc(C(=O)N[C@@H](CCC(=O)O)C(=O)O)cc3)cc2c(=O)[nH]1", "tested on": "CHO PC43-10, human RFC-expressing", "assay": "cell growth", "endpoint": "IC50", "value": "> 1000 nM"}
{"Substance": "C[C@@]12CC[C@H]3c4ccc(O)cc4CC[C@@H]3[C@H]1CC[C@H]2O (single isomer, unassigned)", "tested on": "HT-22", "assay": "cell protection", "conditions": "with: iodoacetic acid 40 µM", "endpoint": "EC50", "value": "35000 nM"}
{"Substance": "C=C(CO)[C@@H]1CC[C@]2(C)CC[C@]3(C)[C@H](CC[C@@H]4[C@@](C)(CC(=O)O)[C@H](C(C)(C)C(=O)O)CC[C@]43C)[C@@H]12", "tested on": "human neutrophils", "assay": "elastase release", "conditions": "with: fMLF", "endpoint": "IC50", "value": "2200 nM"}
{"Substance": "MVGGVVIA", "tested on": "differentiated PC-12", "assay": "Aβ42-induced toxicity, inhibitor, MTT", "system": "peptide", "conditions": "10-fold excess over Aβ42, 15 h, with: Aβ42 5 µM", "endpoint": "viability", "value": "82 ± 4%"}
{"Substance": "C[C@]12CC[C@@H]3c4ccc(O)cc4CC[C@H]3[C@@H]1CC[C@@H]2OC(=O)c1ccccc1", "tested on": "HT-22", "assay": "cell protection", "conditions": "with: glutamate 10 mM", "endpoint": "EC50", "value": "8290 nM"}
{"Substance": "Nc1ncnc2c1nc(Br)n2[C@@H]1O[C@@H]2COP(=O)(O)O[C@H]2[C@H]1O", "tested on": "PDE1A", "assay": "cyclic nucleotide hydrolysis, substrate or inhibitor, isothermal titration calorimetry", "endpoint": "Km or Ki", "value": "32800 nM"}
{"Substance": "COc1ccc(N(C)c2nc(C)nc3[nH]ccc23)cc1", "tested on": "HeLa expressing WT βIII-tubulin", "assay": "cell growth", "endpoint": "IC50", "value": "186 ± 21 nM"}
{"Substance": "COc1c(O)ccc2c1cnc1c3cc4c(cc3ccc21)OCO4", "tested on": "neutrophils", "assay": "superoxide production", "conditions": "with: fMLF", "endpoint": "IC50", "value": "4100 nM"}
{"Substance": "Cc1c(O)c(C23CC4CC(CC(C4)C2)C3)cc2c1CC[C@@H]1[C@@H]2CC[C@]2(C)C(=O)CC[C@@H]12", "tested on": "HT-22", "assay": "cell protection", "conditions": "with: glutamate 20 mM", "endpoint": "EC50", "value": "37 nM"}
{"Substance": "CC(=O)c1cccc(N[C@H]2[C@H](N)[C@@](NC(=O)N(C)C)([C@H](C)O)[C@@](C)(O)[C@@]2(O)COC(=O)c2c(C)cccc2O)c1", "tested on": "RXF 393 (renal cancer)", "assay": "cell growth", "conditions": "NCI screen data", "endpoint": "GI50", "value": "< 100 nM"}
{"Substance": "CNC(=O)c1cc(Oc2ccc(NC(=O)Nc3ccc(Cl)c(C(F)(F)F)c3)cc2)ccn1", "tested on": "NCI Breast cancer cell panel", "conditions": "mean graph midpoint", "endpoint": "GI50", "value": "2330 nM"}
{"Substance": "C=C(C)C(O)Cc1c(O)ccc2ccc(=O)oc12 (stereo not shown)", "tested on": "human neutrophils", "assay": "elastase release", "conditions": "with: fMLF", "endpoint": "IC50", "value": "17900 nM"}
{"Substance": "Nc1nc2c(nc(Sc3ccc(Cl)cc3)n2C2O[C@@H]3COP(=O)(O)O[C@H]3[C@H]2O)c(=O)[nH]1 (stereo in doubt)", "tested on": "PDE1C", "assay": "cyclic nucleotide hydrolysis, substrate or inhibitor, isothermal titration calorimetry", "endpoint": "Km or Ki", "value": "47100 nM"}
{"Substance": "CCn1nnc([C@H]2O[C@@H](n3cnc4c(NCc5cccc(I)c5)nc(Cl)nc43)[C@H](O)[C@@H]2O)n1", "tested on": "Adenosine receptor A1 (ADORA1, Homo sapiens, UniProt P30542)", "assay": "adenylyl cyclase inhibition, agonist", "endpoint": "EC50", "value": "64.9 nM"}
{"Substance": "C[C@]12CC=C3c4ccc(O)cc4CC[C@H]3[C@@H]1CC[C@@H]2O", "tested on": "HT-22", "assay": "cell protection", "conditions": "with: iodoacetic acid 20 µM", "endpoint": "EC50", "value": "253 nM"}
{"Substance": "O=C(OCC12CC3CC(CC(C3)C1)C2)c1ccc(NCc2cc(O)ccc2O)cc1", "tested on": "NCI-60 panel", "assay": "cell growth", "endpoint": "GI50", "value": "1250 nM"}
{"Substance": "CCC(C)c1c(O)ccc2c1CC[C@@H]1[C@@H]2CC[C@]2(C)C(=O)CC[C@@H]12 (stereo partly shown)", "tested on": "HT-22", "assay": "cell protection", "conditions": "with: glutamate 10 mM", "endpoint": "EC50", "value": "244 nM"}
{"Substance": "CSc1ccc(/C=C2/C(C)=C(CC(=O)O)c3cc(F)ccc32)cc1", "tested on": "CHO expressing human APP Swedish", "conditions": "40 µM", "scale": "baseline: untreated", "endpoint": "Abeta42 secretion", "value": "~45%"}
{"Substance": "CN(C)c1ccc2nc3ccc(=[N+](C)C)cc-3sc2c1", "tested on": "cell model", "assay": "tau aggregation", "endpoint": "Ki", "value": "120 nM"}
{"Substance": "Cl.c1csc(CNc2cc[nH]n2)c1", "tested on": "human peripheral blood lymphocytes", "conditions": "≥216 µg/mL, 20 + 0 h, range-finding, without S9", "scale": "baseline: vehicle", "endpoint": "mitotic index reduction", "value": "≥ 50%"}
{"Substance": "NC(=S)NN=Cc1ncccc1N", "tested on": "tumour cell line panel", "assay": "cell growth", "conditions": "48 h", "endpoint": "GI50", "value": "1600 nM"}
{"note": "Some of these lines once more:"}
{"Substance": "Nc1ncnc2c1nc(Br)n2[C@@H]1O[C@@H]2COP(=O)(O)O[C@H]2[C@H]1O", "tested on": "PDE1A", "assay": "cyclic nucleotide hydrolysis, substrate or inhibitor, isothermal titration calorimetry", "endpoint": "Km or Ki", "value": "32800 nM"}
{"Substance": "COc1ccc(N(C)c2nc(C)nc3[nH]ccc23)cc1", "tested on": "HeLa expressing WT βIII-tubulin", "assay": "cell growth", "endpoint": "IC50", "value": "186 ± 21 nM"}
{"Substance": "COc1c(O)ccc2c1cnc1c3cc4c(cc3ccc21)OCO4", "tested on": "neutrophils", "assay": "superoxide production", "conditions": "with: fMLF", "endpoint": "IC50", "value": "4100 nM"}
{"Substance": "Cc1c(O)c(C23CC4CC(CC(C4)C2)C3)cc2c1CC[C@@H]1[C@@H]2CC[C@]2(C)C(=O)CC[C@@H]12", "tested on": "HT-22", "assay": "cell protection", "conditions": "with: glutamate 20 mM", "endpoint": "EC50", "value": "37 nM"}
